Results gathered from unrelated publications.
Each numbered part is a random draw from the data of one study; scales do not carry over between parts.

Series 1 — method: protein-binding microarray; form: double-stranded DNA, one strand shown; medium: in vitro; tested at: 250 nM; notes: 60-bp whole probe; with: salmon DNA 0.4 mg/ml; reference: random background probes; reading: higher = stronger binding; quantity: log fluorescence; constant ends, left off below: GCCTAGCAC … GTCTTGATTCGCTTGACGCTGCTG
Target: Interferon regulatory factor 5, full length, phosphomimetic (IRF5, Homo sapiens, UniProt Q13568-2, residues 1-514, K96S/S451D/S453D/S456D/S462D)
Sequence = TTAGTTTTCGACTTTCGGTTAGTGCTA; result = 10.4 z-score
Sequence = TTAGAACTGGGACTGGATTAGTGCTAG; result = -0.346 z-score
Sequence = TTAGATTTCGACTATCGGTTAGTGCTA; result = 8.22 z-score
Sequence = TTAGGTCACCTTTTCCTTTAGTGCTAG; result = 0.193 z-score
Sequence = TCACCCTTTGCTTTCCTACTGTGCTAG; result = 0.716 z-score
Sequence = CATTTTATGGTATTTTTTTCGTGCTAG; result = 1.14 z-score
Sequence = GACGGTATCGGGTTTCGGGCCGTGCTA; result = 3.82 z-score
Sequence = TCACATTACAGCTATTTTACTGTGCTA; result = 0.936 z-score
Sequence = TTAGATTTCGACACTGGGTTAGTGCTA; result = 2.4 z-score
Sequence = TTAGGACTGAACTATCGGTTAGTGCTA; result = 6.03 z-score
Sequence = TTAGGTATGGACTATCGGTTAGTGCTA; result = 5.13 z-score
Sequence = GACGGTTTCGGGTTTCGGGATGTGCTA; result = 8.33 z-score
Sequence = GACGGTTTAGGGTATCGGGACGTGCTA; result = 0.376 z-score
Sequence = GACGGTTTTGGTTCCGGGACGTGCTAG; result = 1.69 z-score
Sequence = GACGAACTGAGACTGAAGACGTGCTAG; result = -0.154 z-score
Sequence = GGCGCTTTTTTTCCGAGTGAGTGCTAG; result = 0.286 z-score
Sequence = TTAGGTTTCGGTATCGGTGAGTGCTAG; result = 10.5 z-score
Sequence = TTAGGACTGGACACTGAGTTAGTGCTA; result = -0.193 z-score
Sequence = GACGGTTTCCTTATGCTGACGTGCTAG; result = 0.736 z-score

Series 2 — method: RNA Bind-n-Seq; form: RNA; medium: in vitro; tested at: 100 nM; reference: input RNA pool; reading: higher = stronger binding; quantity: bound/input enrichment
Target: RING finger protein unkempt homolog, zinc fingers 1-6, SBP tag (UNK, Homo sapiens, UniProt Q9C0B0, residues 30-357)
Chain of UniProt Q9C0B0 (30-357, looked up): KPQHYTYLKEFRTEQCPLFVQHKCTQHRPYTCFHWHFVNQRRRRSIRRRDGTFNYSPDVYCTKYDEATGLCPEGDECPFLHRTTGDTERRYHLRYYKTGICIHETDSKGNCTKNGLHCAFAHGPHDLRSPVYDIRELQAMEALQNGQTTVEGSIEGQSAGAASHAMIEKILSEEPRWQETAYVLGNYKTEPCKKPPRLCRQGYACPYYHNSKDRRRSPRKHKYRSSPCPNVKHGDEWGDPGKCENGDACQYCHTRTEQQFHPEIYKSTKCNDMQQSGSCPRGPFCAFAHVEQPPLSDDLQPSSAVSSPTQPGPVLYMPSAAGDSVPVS
Notes: RNA with constant flanks, vertebrate orthologous sites, ends assumed
Sequence = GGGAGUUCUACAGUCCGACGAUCUAUUGUAUGUAGAGAAAAAUUUUCAUUUUGACCCAUUGUGAAAUUCCCUAGCAGUUUAUUUAGAAUCUUAAUUUUUCUAAUUGAAGCUCACUGUAUUAGUCAUUUUUAGCCCAUAAUUAACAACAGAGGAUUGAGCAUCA; result = 4.09 ratio
Sequence = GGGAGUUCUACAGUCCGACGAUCUAUUCAGUCAUGGAGAAAAAGUUAUUAAAAUAAUUUUAUGGCACUGCUCUUUACUUUUAUUAGGUUUACUGAAGUUAGGGUUCUUGUUCACAGAAAACAGGAGCUGACUAUUGAGAAAGCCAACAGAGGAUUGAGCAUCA; result = 0.331 ratio
Sequence = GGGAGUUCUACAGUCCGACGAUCUAAAAGAAUCAGAGCAGCAUGGGCUGUGGAAAAAUGAGCUUUGCAUUUUUUAUAUUUAAAUAGGAUACUUUUAUAUGAUGGGUGCUUUGAGUGUGAAUGCAGCAAGCUUUCCUUUUCAGACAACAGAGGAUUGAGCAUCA; result = 1.09 ratio
Sequence = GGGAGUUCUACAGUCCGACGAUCGCAAAAGGCCAAAUUCCCUCCUCCCUUCUACUGCUUCUACCAACUGGAAGCACAGAAAACUAGAAUUUCAUUUAUUUUAUUUUUUUAAUUGAUUUCUCGUAACAUCCAAUAGGAAUGCUACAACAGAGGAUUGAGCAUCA; result = 3.77 ratio
Sequence = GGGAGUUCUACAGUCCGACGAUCAAUUUCCAGGAUGAAGCUCUUACAUCAGGUGUCAAGAGUGUGGAAAACAGAUGGGUUGACUAGUUGUUCUUAUAAAUUAUUGUCGGUGGAACACAAUCCUUUAUAUAUCAACGUCACAGUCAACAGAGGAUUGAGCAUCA; result = 0.563 ratio
Sequence = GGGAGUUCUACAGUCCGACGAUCGUGACUUUGGAAGUCUGCAGUGUCUCAUUGCAGAUACUACUUAGCUCAGGGCCUGGUGGCUACACAGGUUCUUUCCUUUCCAGUCGGUGGCCUCUCCCGCAAACAUGCUCCGCCACAUCCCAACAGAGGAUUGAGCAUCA; result = 0.39 ratio
Sequence = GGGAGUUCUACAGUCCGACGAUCUCUAUACAAUUUUAAAAAUACUUCCUCAUAGGAUGCUUUGGCCCUUCAUCUAUUUAAUCAUAGCUACAUACCUAUUUUUUAUAAGUAGCAGUACACAUUCAAAGGGGUAUUCCUAGCUCACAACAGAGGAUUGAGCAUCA; result = 0.802 ratio
Sequence = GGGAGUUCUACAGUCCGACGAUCGUGCCACAGUGGGUUUAUCCCCUCGAUGAGGUGGAGUCCACCUUCGGCAUUCUGUGGUGCCGGAACCAGUCAUCUCCCCAUUCCGUUCCCCACAGACGGGCUUUUGAAAGUCUCUGGGUGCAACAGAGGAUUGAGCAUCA; result = 0.345 ratio

Series 3 — method: RNA Bind-n-Seq; form: RNA; medium: in vitro; tested at: 365 nM; reference: no-protein control; reading: higher = stronger binding; quantity: RBNS enrichment (R)
Target: RNA binding protein fox-1 homolog 2, RRM domain, GST-SBP tag (RBFOX2, Homo sapiens, UniProt O43251-10, residues 100-194)
Notes: natural RNA segment, single round, ends assumed
Target sequence (chain): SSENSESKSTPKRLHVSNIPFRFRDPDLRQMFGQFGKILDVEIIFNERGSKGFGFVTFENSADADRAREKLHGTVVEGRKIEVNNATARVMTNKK
Sequence = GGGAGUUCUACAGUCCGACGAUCCUGAGGGAUGGUCCUGACAGUAAACAGCGGGAAGACACCGGGAGCAUUGUAAUCGCUUGGUUAAUUGUCCGACAUUGGUCCAGGAACAACUUGUCUUUUCAGCCGGCUGAUGGAAUUCUCGGGUGCCAA; result = 0.501
Sequence = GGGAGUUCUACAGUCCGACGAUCGGGGAUCGCCAUAUGGACCACCUGGUUGACAGACGGCUUCUUGCUUGCCUGGGCCUUCUGCCUUAUACUUUGGGAUAAAUGGGGUGUAGGGGAUAUAUUCACUACUUUGGUGGAAUUCUCGGGUGCCAA; result = 0.927
Sequence = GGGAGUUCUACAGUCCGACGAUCAUCUUGCAAUCUCUCCAUACUGGCUCCAUGUUGAAAUUGCUUUUUCCCUCAGGACCCUGGGUAAGAUGGCUACAUUUAAGGUGACUCUGAAUGGUGGGGUUCUAGCUUGGUGGAAUUCUCGGGUGCCAA; result = 0.723
Sequence = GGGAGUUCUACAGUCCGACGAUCGGCAGAAGACGGUGGCGGCCCUGGGAGUGCUCGGUGUUUUCUGCAGUGCAAGCUACGGACCACAGUUAGGCUGCCUCACCUCUCAGGCGGCCAGCAGCAGCUCUGCUCAGUGGAAUUCUCGGGUGCCAA; result = 0.444
Sequence = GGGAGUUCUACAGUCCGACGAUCGAAUGGAACUAAUAUAUGUAACAGAGAAAAACAAUAAAUUUUAUGAACUUGUUUUAUAUUUGCAUAUCAAGAGUCAAGUAUGAUGUUUCUUUAAGUUGACUUUUUUUACUUGGAAUUCUCGGGUGCCAA; result = 0.717
Sequence = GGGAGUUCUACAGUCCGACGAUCAGAAACUGGGCUCAUCACACCAAGGCAAAGCAACGGGCGAGUCUUCCUCCUUGUCCUAGUUACUGCCUAUGGAGGCAGUGUUUAGAUCAAGAAGGCCUCUCUUGCUCCCAUGGAAUUCUCGGGUGCCAA; result = 0.286
Sequence = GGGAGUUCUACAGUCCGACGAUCCUGCGCUCCUCCCAACACAGACGCAGUGGCCUGCGCAGAGCACUCAGGGCCAGUGCCAUCUGUGAUUCAUGAUCACUAGGUUAUAGGUGAAAUCUCAGUAAGUUAUUUUGUGGAAUUCUCGGGUGCCAA; result = 0.396
Sequence = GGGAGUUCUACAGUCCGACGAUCGACAGCACAUGUGGGAAGUCAACGCAAGCCUCUCCCCUCCGUGGCUCUGGUUUCUUGGCUGCAUGGUUCUCUGUAAAUUCAGUUGUAGCCACUGUCUUUGGCUAGAAAGCUGGAAUUCUCGGGUGCCAA; result = 1.09

Series 4 — method: universal PBM; form: double-stranded DNA, one strand shown; medium: in vitro; tested at: 600 nM; reading: higher = stronger binding; quantity: E-score
Target: Sal-like protein 4, full length isoform A (SALL4, Homo sapiens, UniProt Q9UJQ4, residues 1-1053)
Chain of UniProt Q9UJQ4 (whole entry, looked up): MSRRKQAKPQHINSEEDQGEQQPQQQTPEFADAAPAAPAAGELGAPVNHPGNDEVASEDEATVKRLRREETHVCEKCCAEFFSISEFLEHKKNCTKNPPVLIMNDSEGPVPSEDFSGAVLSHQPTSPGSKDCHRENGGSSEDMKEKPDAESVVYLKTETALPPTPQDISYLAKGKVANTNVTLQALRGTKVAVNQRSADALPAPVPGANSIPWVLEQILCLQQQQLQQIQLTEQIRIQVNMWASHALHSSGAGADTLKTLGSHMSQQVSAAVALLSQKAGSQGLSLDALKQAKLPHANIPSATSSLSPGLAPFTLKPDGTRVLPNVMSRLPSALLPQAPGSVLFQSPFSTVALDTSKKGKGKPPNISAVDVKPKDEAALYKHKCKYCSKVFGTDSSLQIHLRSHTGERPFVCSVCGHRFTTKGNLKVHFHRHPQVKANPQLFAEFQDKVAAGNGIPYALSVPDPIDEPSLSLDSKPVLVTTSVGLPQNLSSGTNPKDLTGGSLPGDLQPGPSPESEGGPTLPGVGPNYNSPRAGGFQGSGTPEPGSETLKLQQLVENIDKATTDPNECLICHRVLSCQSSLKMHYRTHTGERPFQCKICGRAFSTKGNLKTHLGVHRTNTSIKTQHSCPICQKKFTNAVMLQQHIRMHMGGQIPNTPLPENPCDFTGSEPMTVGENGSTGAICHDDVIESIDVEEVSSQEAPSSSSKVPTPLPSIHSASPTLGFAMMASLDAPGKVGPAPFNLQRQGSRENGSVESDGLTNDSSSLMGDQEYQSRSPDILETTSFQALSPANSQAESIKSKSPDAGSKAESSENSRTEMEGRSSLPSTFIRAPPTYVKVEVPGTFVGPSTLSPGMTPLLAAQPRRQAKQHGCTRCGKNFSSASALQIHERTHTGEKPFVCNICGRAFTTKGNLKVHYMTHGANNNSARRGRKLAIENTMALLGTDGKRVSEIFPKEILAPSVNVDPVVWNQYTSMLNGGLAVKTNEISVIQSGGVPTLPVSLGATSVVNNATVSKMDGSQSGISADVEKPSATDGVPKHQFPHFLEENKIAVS
Notes: 8-mer, flanks averaged, mean of replicates
Sequence = AGTGTTGG; result = -0.135
Sequence = CACTGTGG; result = -0.309
Sequence = GACTGCCA; result = -0.117
Sequence = CAATTTGC; result = 0.0262
Sequence = CCGTCGTA; result = -0.0474
Sequence = ACAACTGG; result = -0.108
Sequence = CGAACGCA; result = 0.0575
Sequence = AAATAATT; result = 0.431
Sequence = GAGCGCGA; result = -0.156
Sequence = AATTTGCC; result = 0.13
Sequence = TAAAGGTA; result = 0.208
Sequence = AACACCCG; result = -0.103
Sequence = ATGCAGGA; result = -0.0146
Sequence = CCTTAGGC; result = -0.282
Sequence = CATCGACG; result = -0.211
Sequence = ACTAAGGC; result = -0.0629
Sequence = ATCCTCCG; result = -0.179
Sequence = CTTACGCA; result = 0.0589
Sequence = ATGCCGAA; result = 0.0103
Sequence = CTGGCGGA; result = -0.255
Sequence = TCGATTAA; result = 0.3
Sequence = CAAAAAGC; result = 0.178
Sequence = AGCGGCCC; result = -0.367
Sequence = CCTACATA; result = 0.155
Sequence = CGGCCTCC; result = -0.355

Some of these lines once more (series 4):
Sequence = CAAAAAGC; result = 0.178
Sequence = AAATAATT; result = 0.431
Sequence = CCGTCGTA; result = -0.0474
Sequence = CGAACGCA; result = 0.0575
Sequence = AGTGTTGG; result = -0.135
Sequence = CTTACGCA; result = 0.0589
Sequence = GACTGCCA; result = -0.117
Sequence = TCGATTAA; result = 0.3
Sequence = CCTTAGGC; result = -0.282
Sequence = ACTAAGGC; result = -0.0629
